Measurements of several laboratories.
Numbered parts are unrelated; each lists some results of a single study. Changes are numbered by the printed parent chain.

Study 1 — technique: protein-binding microarray; form: double-stranded DNA, one strand shown; matrix: in vitro; tested at: 0.8 µM; notes: whole 60-bp probe, no competitor; reading: higher = stronger binding; shared flanks, not repeated: … GTCTTGATTCGCTTGACGCTGCTG
Target: Centromere-binding protein 1, full length, N-terminal tag (CBF1, Saccharomyces cerevisiae, UniProt P17106, residues 1-351)
Sequence of UniProt P17106 (whole entry, looked up): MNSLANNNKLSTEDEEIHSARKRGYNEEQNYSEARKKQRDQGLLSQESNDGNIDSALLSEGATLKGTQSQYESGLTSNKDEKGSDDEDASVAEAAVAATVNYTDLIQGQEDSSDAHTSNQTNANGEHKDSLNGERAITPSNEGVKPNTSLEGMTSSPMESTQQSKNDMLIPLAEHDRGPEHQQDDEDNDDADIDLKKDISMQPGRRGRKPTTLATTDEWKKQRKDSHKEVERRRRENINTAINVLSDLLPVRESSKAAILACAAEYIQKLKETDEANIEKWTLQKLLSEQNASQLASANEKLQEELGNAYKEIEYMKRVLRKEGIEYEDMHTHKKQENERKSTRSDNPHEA
Sequence	fluorescence intensity [a.u.]
CCTAACTACTATAAACACGGGTAATAGCTTCGTACA	533
CTAAGGATTTATAGGCGCGTGCGTGCAGCCTTATTC	799
CTAAAAGGTCTATAATAGGTGGTGCCTTCTTGCTTC	499
CTATCTGATATTAATCACATGTATATCTCAATTTTC	2240
CTACTGTAAACAATTCAACTGACATTAGATACATTC	558
CTATTGCAAGAATTACTCGTGAGTAAGGAAAGATTC	543
CTATAGGAAATATGACATGTGGGCTATCTGTTTTTC	600
TGTACGAAGCTATGGCACGCCGATATAGTAGTTAGG	548
GAATATAGTTTTACTTGCGTGAGGTTAGGGATTTAG	504
CTATATGTTAACGATAACGTGTTGGACTCATCGTTC	640
CTAAACACAAGCCCCCACGATGGCCTACTCTTCTTC	490
CTACTCGCATCCGGGCACGCTTTGTGAAATTCATTC	573
CCTAACTACTATACTCAGGTGTAATAGCTTCGTACA	539
TGTACGAAGCTATGTCATGTTGCTATAGTAGTTAGG	563
TGTACGAAGCTATCTCATGTCACTATAGTAGTTAGG	567
GAAGAAGATGATGATCACGGCTTGGAGGATGACTAG	580
GAATTTGCCTCAATGAACGTGTGTAATGGCGGTTAG	531
GAAGTAAGAAAGCAGCACGAGCTCAACAAGACTTAG	668
CTATCATAGAAAAACCACGTGAAAAAAAAAAAATTC	4360
GAATGAATAAATCGACGTGTGTGTACGGTGGAATAG	568

Study 2 — technique: RNA Bind-n-Seq; form: RNA; matrix: in vitro; tested at: 365 nM; relative to: no-protein control; reading: higher = stronger binding
Target: RNA binding protein fox-1 homolog 2, RRM domain, GST-SBP tag (RBFOX2, Homo sapiens, UniProt O43251-10, residues 100-194)
Notes: natural RNA segment, single round, ends assumed
Shared flanks, not repeated: GGGAGUUCUACAGUCCGACGAUC … UGGAAUUCUCGGGUGCCAA
Target sequence (chain): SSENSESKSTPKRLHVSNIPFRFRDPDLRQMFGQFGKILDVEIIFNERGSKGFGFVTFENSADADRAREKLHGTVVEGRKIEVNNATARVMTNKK
Sequence	RBNS enrichment (R)
AAUAUGGUCCAAUUGCUUUUCUUUUUAACAUGACAAACAAUUUUAAAAGAGACUAAGGAACAAACACUAUUGCGCCGAAUGCCAUAACACUGAGUUGUACAAAUUGUGAU	0.34
UGGAAAUAUGUUCUUUCUAGUUGUGGGUACCCUGAUCUAGGUGGUUUGUAAUUGUGCAUUACUGACUGCAUAUGUUUGUGUAUGUGUAAAUGUGGGCUCCCUGUUAAGUG	0.986
AUUCUCUUGUCAUAGUCCUGGUUUGCCAGCUGACUACAGGAUAGACCCAGCUGUCUGGCACUCAAACGGUCUCUGCAGCCACAGUUUUAUCAAGUAUCCUGUAUGUGUUC	0.443
GGUAUUUUAUCACACCUUGACACCUUAUAUAUGAGCCUAUUAGGAGCUGCAGGUGGUUUCAUAGGGUAAAAUCCAAGAAAAGAGAAGGAUGUGUGGGGUUUCUAUUAGAA	0.749
AGGUACAGUUUAUUAACUAGAUGGAAGAGAAUGGAAUUACUCCAAGAAUACAAGUGCACAGGCGGCAACUCCUUACUUCCAGCAAAAUUGAAACUGCUGUCUCUGAAACU	0.596
CUAAAUGGGUGUAGUUGUAUAUGCACGAUGUAAUUUAAUGCUAAAGAGUACUUACAGCUUGAGGGAAAAGCAUAAAGUUUUAGUUAAAUAGCCUUCAUACUGUGGAUUUU	2.1
CUUCCAAGAUGAAGAGGAGAAGCAGGCCAACCCUCAAUAAUUGCAAGCCUGAAGAGAAGUGAUCUUAGAGAAAGCAGAGAACAGAAUGGACUGGAUAGACAUCUUGACUC	1.26
GCCUACUCCGCUCACUGAACUCCUUCCCCACUUCUGUGCCACCCCCGGUCUAUGUCGAGAGCUGGCCAAAGAGCCUUUCCAAAGAGGAGCGAUGGGCCCCUGGCCCCGCC	0.649
CGGGAGAAACAGCCCAAACCACAGGAAGCAACAGAAACUGGAGAACCGCCACCUUUAGAAUUUCCAACACUCAGGCUCUGCCCGUCGGCUUGGCUGCAGGACAGAGACUU	0.322
CUGAUGAGUGUUGUAUAGAUGAUUUGAAUUGAUAAAAGUAUUAGGGAUGAGGUUUGUACUUUCCUGAACUUGAAUUUCAAACACUAACUGUAUCCUAUGAGUGACGUGUG	1.1
GUGCUGGAAUUAGCCUGGCCAAUCUUGGAUUUUUAAUGGAAUAUGUGGGCACAAAAUGACAGAACAUAGGACAUUCUAAAGUUCCUUGAUUUGAUCAUUAUAAGAAGUGU	0.508
AACUGGAUGGACGUUGUUAGGGUGAGAAAUAAAAGGACAGCCUCCAAAGGUUGAGAAUGAGAAUUGUUUUUUCCUGGAUAUCAAAGGGAUUAUCACAGCGCAAUCAUUGU	0.885

Study 3 — technique: protein-binding microarray; form: double-stranded DNA, one strand shown; matrix: in vitro; tested at: 2540 nM top; notes: 60-bp whole probe; with: salmon DNA 0.4 mg/ml; relative to: random background probes; reading: higher = stronger binding; shared flanks, not repeated: GCCTAGCAC … GTCTTGATTCGCTTGACGCTGCTG
Target: Interferon regulatory factor 3, full length, phosphomimetic (IRF3, Homo sapiens, UniProt Q14653, residues 1-427, S386D/S396D/S398D/S402D/T404D/S405D)
Sequence of UniProt Q14653 (whole entry, unmodified, looked up): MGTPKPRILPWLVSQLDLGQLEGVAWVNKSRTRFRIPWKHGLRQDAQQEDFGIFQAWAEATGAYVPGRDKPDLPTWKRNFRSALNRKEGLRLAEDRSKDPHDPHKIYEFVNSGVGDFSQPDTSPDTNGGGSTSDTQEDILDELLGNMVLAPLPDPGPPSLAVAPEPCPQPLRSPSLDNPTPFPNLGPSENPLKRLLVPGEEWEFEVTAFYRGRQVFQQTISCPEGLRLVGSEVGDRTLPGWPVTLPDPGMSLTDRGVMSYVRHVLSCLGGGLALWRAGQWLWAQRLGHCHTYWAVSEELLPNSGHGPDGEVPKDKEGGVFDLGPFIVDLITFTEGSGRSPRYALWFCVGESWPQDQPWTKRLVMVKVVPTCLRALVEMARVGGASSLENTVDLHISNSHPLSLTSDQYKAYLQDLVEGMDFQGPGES
Sequence	fitted relative affinity
TTAGGTACCCTTTTCCTTTAGTGCTAG	5.14 z-score
TTAGGTTCCCATTTCCTTTAGTGCTAG	5.36 z-score
ATAGGTATCCTACTGCTTTAGTGCTAG	2.44 z-score
TTAGGTTTCGGTGCCGGTTAGTGCTAG	4.89 z-score
AACGATATCGGGTTTCGAGACGTGCTA	1.2 z-score
TCATCTTTCATTGCTGCACTGTGCTAG	1.13 z-score
GACGGTAACCTTATCCTGACGTGCTAG	0.971 z-score
TTAGAGCTGAGTTTCGATTAGTGCTAG	2.28 z-score
TCATGTCTGGAGTCTCTGACTGTGCTA	-0.524 z-score
TTAGGTTTCGGGTATCAGTTAGTGCTA	4.54 z-score
TCATGTCAACTTTCTCTGACTGTGCTA	0.55 z-score
GACGGTTTCGGTTCCGGGATGTGCTAG	10.8 z-score
ATCTTCATGAAATTTTAGTAAGTGCTA	0.285 z-score
GACGGTTCTGGTTTCGGGACGTGCTAG	3.82 z-score

Study 4 — technique: protein binding microarray; form: double-stranded DNA, one strand shown; matrix: in vitro; tested at: not given; relative to: not given; reading: higher = stronger binding
Target: Histone acetyltransferase KAT6A, winged helix 1, GST fusion (KAT6A, Homo sapiens, UniProt Q92794, residues 1-85)
Notes: 8-mer, flanks averaged, mean of 2 arrays, mostly near background
Residues (chain): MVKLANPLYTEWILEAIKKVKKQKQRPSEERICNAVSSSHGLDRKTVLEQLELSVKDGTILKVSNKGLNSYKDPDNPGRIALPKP
Sequence	E-score
ACTGGCTG	0.0378
TCCCCGGA	0.028
CCATCCCG	0.219
ATGCGGTG	0.149
AGGAGCTC	-0.164
GCTAACGA	0.0124
CGTTGCCA	-0.041
ATGACGTG	-0.0765
TAAACGCA	0.0793
ACCGGAGA	0.0649
CCCCTTAC	0.117
ACAGCTTC	-0.167
AGGCATTC	-0.0786
GGTCAGGA	-0.0708
GCTCTGCA	-0.0918
AATTTGCC	-0.128

Study 5 — technique: DHFR PCA, deep sequencing; matrix: yeast; with: (+)-ABA 1.4 µM; relative to: wild-type fitted maximum; reading: higher = stronger binding
Target: ABI1, truncated, D143A, DHFR fusion (Arabidopsis thaliana)
Notes: methotrexate growth selection, single substitutions
Starting sequence: PYL1, truncated, DHFR fusion (Arabidopsis thaliana); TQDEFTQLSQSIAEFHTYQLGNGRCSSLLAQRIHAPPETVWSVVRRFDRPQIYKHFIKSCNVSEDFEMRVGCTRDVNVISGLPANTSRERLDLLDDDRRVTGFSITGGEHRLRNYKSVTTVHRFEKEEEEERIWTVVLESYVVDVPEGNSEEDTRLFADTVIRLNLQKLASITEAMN
Variant	relative binding score
Q10S	80.8%
L166F	-8.64%
I52F	27%
V76Y	6.35%
R113P	44%
R24P	-6.82%
S9R	75.5%
V136G	-0.404%
G148F	-37.7%
T73I	67.8%
Y53W	52.6%
S9D	47%
L28Q	23.2%
V121R	-5.1%

A few entries again (study 1):
Sequence	fluorescence intensity [a.u.]
CTATATGTTAACGATAACGTGTTGGACTCATCGTTC	640
CTAAACACAAGCCCCCACGATGGCCTACTCTTCTTC	490
CTACTCGCATCCGGGCACGCTTTGTGAAATTCATTC	573
CCTAACTACTATACTCAGGTGTAATAGCTTCGTACA	539
TGTACGAAGCTATGTCATGTTGCTATAGTAGTTAGG	563
TGTACGAAGCTATCTCATGTCACTATAGTAGTTAGG	567
GAAGAAGATGATGATCACGGCTTGGAGGATGACTAG	580
GAATTTGCCTCAATGAACGTGTGTAATGGCGGTTAG	531
GAAGTAAGAAAGCAGCACGAGCTCAACAAGACTTAG	668
CTATCATAGAAAAACCACGTGAAAAAAAAAAAATTC	4360
GAATGAATAAATCGACGTGTGTGTACGGTGGAATAG	568
